{"data": "Published values collected from several papers", "note": "Each numbered part is a random draw from the data of one study; scales do not carry over between parts. Positions count from the first letter of the parent shown."}
{"data": "Sample 1", "target": "CCNE1, cyclin fold, Cln2 fusion (human)", "method": "yeast growth competition, sequencing", "medium": "yeast", "setting": "weak parent motif", "relative to": "not given", "direction": "higher = stronger binding", "starting sequence": "FZR1 docking peptide (human); QDYERRLLRQIVI"}
{"Variant": "QDYERRLLRQAVI [I11A]", "normalised enrichment score": 1.55}
{"Variant": "QDYERRLLAQIVI [R9A]", "normalised enrichment score": -0.221}
{"Variant": "QDYERRALRQIVI [L7A]", "normalised enrichment score": 0.724}
{"Variant": "QDYERRLLRAIVI [Q10A]", "normalised enrichment score": 0.589}
{"Variant": "QDYEARLLRQIVI [R5A]", "normalised enrichment score": 0.158}
{"Variant": "QDYARRLLRQIVI [E4A]", "normalised enrichment score": 1.09}
{"Variant": "QDYEKRLFRQIVI [R5K L8F]", "normalised enrichment score": 0.321}
{"data": "Sample 2", "target": "Ras GTPase-activating protein-binding protein 1, full length (G3BP1, Homo sapiens, UniProt Q13283)", "method": "RNA Bind-n-Seq", "form": "RNA", "medium": "in vitro", "tested at": "200 nM", "setting": "whole 134-nt RNA, ends assumed", "together with": "150 mM LiCl", "relative to": "input library", "direction": "higher = stronger binding", "library": "7-deaza-guanosine replaces G", "all sequences stand within": "GGGAGUUCUACAGUCCGACGAUC … UGGAAUUCUCGGGUGUCAAGG", "sequence of UniProt Q13283 (whole entry, looked up)": "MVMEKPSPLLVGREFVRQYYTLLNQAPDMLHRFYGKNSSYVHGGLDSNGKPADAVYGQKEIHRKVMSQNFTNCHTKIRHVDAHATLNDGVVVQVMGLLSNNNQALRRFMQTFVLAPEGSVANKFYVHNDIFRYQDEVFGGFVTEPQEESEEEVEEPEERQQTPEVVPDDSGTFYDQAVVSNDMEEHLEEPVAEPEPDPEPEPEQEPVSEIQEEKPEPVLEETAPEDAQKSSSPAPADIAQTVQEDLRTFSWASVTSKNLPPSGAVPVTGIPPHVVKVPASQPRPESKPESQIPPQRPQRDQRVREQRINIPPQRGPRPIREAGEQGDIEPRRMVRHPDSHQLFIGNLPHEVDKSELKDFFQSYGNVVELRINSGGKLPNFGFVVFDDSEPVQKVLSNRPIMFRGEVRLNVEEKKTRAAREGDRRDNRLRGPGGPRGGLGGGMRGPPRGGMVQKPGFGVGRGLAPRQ"}
{"Oligonucleotide": "UGGGAGGUGGAUUUUGUUUAUUUUUUUAGCUCAUUUCCAGGGGUGGGAAUUUUUUUAUAAUAUGUGUCAUGAAUAAAGUUGUUUUUGAAA", "log2 enrichment": -0.31}
{"Oligonucleotide": "GCAGGAAGUACAAACAAAUGGAAAUGCUUCGGAUAGUGGCAGGGGUGGGGGUUGCUAAGGAAAGGGUGGGAUGGGAGUGGGUAAAGAGUU", "log2 enrichment": 0.428}
{"Oligonucleotide": "UUGGAAGAGACCAGUGAAAUUCGAUCUGACUUGGAGCAGUUAGACCACGAGGUUAAGGAGGCUCAGACACUGUGCGAUGAACUCUCAGUG", "log2 enrichment": 0.229}
{"Oligonucleotide": "AGUCCUGUGCUACACAUCGUAUGUACCGAAUCGGUUUUUUUGGUUUUUGGAAAAAGGAAAGUAUUAUGUUACGCCGUUCGGAUCUGCACU", "log2 enrichment": -1.7}
{"Oligonucleotide": "UAACUUUAGAGGAGGAUCUGAUGCAUAUGGCAGUGGACGUGGAUUUGGGGAUGGCUAUAAUGGGUAUGGAGGAGGACCUGGAGGUGGCAA", "log2 enrichment": 0.448}
{"Oligonucleotide": "AAGUCCUGUGCUACACAUCGUAUGUACCGAAUCAAAUUUAAAUUUUUAAAUUUAAAAAAGUAUUAUGUUACGCCGUUCGGAUCUGCACUU", "log2 enrichment": -2.72}
{"Oligonucleotide": "UGGCCCUGGUGGCAUGCGGGGAGGAAGAGGUGGCCUCAUGGAUCGUGGUGGUCCCGGUGGAAUGUUCAGAGGUGGCCAUGGUGGAGACAG", "log2 enrichment": -0.0282}
{"Oligonucleotide": "CAAGUCCUGUGCUACACAUCGUAUGUACCGAAUCGGGGAAAGGGAAAGGGAAAGGAAAGUAUUAUGUUACGCCGUUCGGAUCUGCACUUC", "log2 enrichment": -0.335}
{"Oligonucleotide": "CAAGUCCUGUGCUACACAUCGUAUGUACCGAAUCGGGCCCGGGGCCCGGGGCCCGGAAAGUAUUAUGUUACGCCGUUCGGAUCUGCACUU", "log2 enrichment": -1.34}
{"Oligonucleotide": "CAAGUCCUGUGCUACACAUCGUAUGUACCGAAUCGGAAAAGGAAAAGGAAAAGGGGAAAGUAUUAUGUUACGCCGUUCGGAUCUGCACUU", "log2 enrichment": -0.91}
{"Oligonucleotide": "UUGCAGGAGCCGCCGCGCCUCGGCCUAGCAUGUCGGAAGCGGGCGAGGAGCAGCCCAUGGAGACGACGGGCGCCACCGAGAACGGACAUG", "log2 enrichment": -0.369}
{"data": "Sample 3", "target": "RNA binding protein fox-1 homolog 2, RRM domain, GST-SBP tag (RBFOX2, Homo sapiens, UniProt O43251-10, residues 100-194)", "method": "RNA Bind-n-Seq", "form": "RNA", "medium": "in vitro", "tested at": "365 nM", "setting": "natural RNA segment, single round, ends assumed", "relative to": "no-protein control", "direction": "higher = stronger binding", "all sequences stand within": "GGGAGUUCUACAGUCCGACGAUC … UGGAAUUCUCGGGUGCCAA", "Target sequence (chain)": "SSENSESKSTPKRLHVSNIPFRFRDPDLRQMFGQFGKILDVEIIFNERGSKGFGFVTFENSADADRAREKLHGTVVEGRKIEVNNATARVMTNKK"}
{"Oligonucleotide": "AAUUCAACAAUCUGAGAGAGAAAACUUAAUCCAAUGGCAGAGAAGCUUCUGAGUUUUAUAUUGUUUGCAUCCCAUUGCCCUCAAUAAAGAAAGUCCUUUUUUUAAGUUCU", "RBNS enrichment (R)": 0.569}
{"Oligonucleotide": "UUGUUACAUCCAGGGCAUGGCAGUGGCCUCAGCCUUAAACUUUUGUUCCUACUCCCACCCUCAGCGAACUGGGCAGCACGGGGAGGGUUUGGCUACCCCUGCCCAUCCCU", "RBNS enrichment (R)": 0.477}
{"Oligonucleotide": "CUUUCUUAAGGGCCAAGAAAGCAACUUGAGCCUUGGGCUAAUCUGGCUGAGUAGUCAGUUAUAAAAGCAUAAUUGCUUUAUAUUUUGGAUCAUUUUUUACUGGGGGCGGA", "RBNS enrichment (R)": 0.506}
{"Oligonucleotide": "UUUUUAACCUUCUUUUUGCAAAUGUCUUCAGGGAACUGAGCUAAUACUUUUUUUUUUUCUUGAUGUUUUCUUGAAAAGCCUUUCUGUUGCAACUAUGAAUGAAAACAAAA", "RBNS enrichment (R)": 0.743}
{"Oligonucleotide": "AGGAAAGGGAAAGAUGUUGCCAUAUUUCCUACUCUUUAGGCAUGGACUCUCCUUUCCCUUUGUUAGUGUCCUGGGUUCCCAUGGACUCAGGGAUUUGUUGGCUAAGGUUU", "RBNS enrichment (R)": 0.284}
{"Oligonucleotide": "AAAGGAGGUCUUCUCUCUGCCCUGGAGGAGGACAUAUAGCUGAUUUCUGUUCUUUUAACUCUUAAAAAUCUCUUUCUAAACUUGGAGUGGUUUAUAUUCGCCCGAGCUCC", "RBNS enrichment (R)": 0.751}
{"Oligonucleotide": "UGGUGUUGAUUUUCCUCCCUGCAGAGCCAAUGGUGCACAUUGGUUUAAGCCCAGAGAUCCUGCUUGAGCCCUGGACUCAUCUUGGGAAGGGCCAUGGGAGGUCCUGGCUA", "RBNS enrichment (R)": 0.595}
{"Oligonucleotide": "AACCUGAAGACAUCCUACAAUGAUUUCCCACACUCUAUUUUUCCUUAUGUUUGCUUAAAUAGCAAAAAUCAACACUAAAUGUCUAAAGGAAUUUGUAAUUUGAGACCUAG", "RBNS enrichment (R)": 0.371}
{"Oligonucleotide": "ACCUCAUUCUGGUUUCAGUGUUACUUGUGCGCAUGUGUGUGUGUGUCUGCAGAUGGAAAUCAUUCCCCACUGGCAGUAUCUGCUCGGGUUCAACGCUCUGUCCUCUGAGG", "RBNS enrichment (R)": 4.09}
{"Oligonucleotide": "UUCACUAUUCCAUUUGUGAAGUGUACUUUCAUUCUAAAGCCUCAGUAUAAGGCAUCCUAACUUACAAGAGUAACUUUCCAUGGACAUUUAACAUCCUUCCAAUUUUAUUC", "RBNS enrichment (R)": 0.334}
{"Oligonucleotide": "AAGACUAAUGUUAAUUGUUCUUAAAACUGGAUUUUUUUUCCUUAAAGCAAUUUUUUUCUUUUCGAUUUAAUGAAGUAUUGCUAGCUGAAGCCAGUUUGACAUAGAGAGAU", "RBNS enrichment (R)": 0.504}
{"Oligonucleotide": "UCUACCUAGUCUGCUGGGCUGAUAGUGAAGCACCGAGGUUGAUGGACUUACAUUCCCAGUGUGCCUGCCAGCUGCAAUGAGGACUCUAAACUCAAGUAGAACAAAUCCCU", "RBNS enrichment (R)": 0.609}
{"data": "Sample 4", "target": "RING finger protein unkempt homolog, zinc fingers 1-6, GST-SBP tag (UNK, Homo sapiens, UniProt Q9C0B0, residues 30-357)", "method": "RNA Bind-n-Seq", "form": "RNA", "medium": "in vitro", "tested at": "not given", "setting": "RNA with constant flanks, human and mouse sites, ends assumed", "relative to": "input RNA pool", "direction": "higher = stronger binding", "all sequences stand within": "GGGAGUUCUACAGUCCGACGAUC … CAACAGAGGAUUGAGCAUCA", "Construct (chain)": "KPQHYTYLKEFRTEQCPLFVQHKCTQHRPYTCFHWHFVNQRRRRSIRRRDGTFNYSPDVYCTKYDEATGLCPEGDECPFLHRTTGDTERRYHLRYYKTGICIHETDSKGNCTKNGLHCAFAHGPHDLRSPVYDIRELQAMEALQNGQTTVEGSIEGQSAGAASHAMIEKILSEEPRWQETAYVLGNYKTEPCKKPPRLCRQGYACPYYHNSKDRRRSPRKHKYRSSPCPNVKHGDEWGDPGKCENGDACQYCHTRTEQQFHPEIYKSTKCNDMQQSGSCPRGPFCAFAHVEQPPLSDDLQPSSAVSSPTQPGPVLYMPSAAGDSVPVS"}
{"Oligonucleotide": "CUUGACCUCAGGCCUACCUCUGCCUUCCAAGUGCCAGGAUUAAAGGCGUGUGCCACCAUCACUCAGUUGCACAGUUCUUAAAUAUAAAGUGUGAACAUGUAUUUCUUUGAAAGAAAUAUU", "bound/input enrichment": "0.0877 ratio"}
{"Oligonucleotide": "GCCCAGGGUCGCCAUGUAGAAGUUUUUGAGCUCCUCAAACCUCCAUCUGGAGGCCUUGGGUUUAGUGUUGUGGGACUAAGAAGUGAAAACAGAGGAGAGCUGGGAAUAUUUGUUCAAGAG", "bound/input enrichment": "0.513 ratio"}
{"Oligonucleotide": "CAGUGACUGUUCACAUGCCCAAAGUUGUGCUGAAUAUGAACCUGACACCAACGCAAGGCAGCUAUACAUUUGAUCCCGUGACCAAGGUACUAGCAUGGGAUGUGGGCAAAAUUACUCCAC", "bound/input enrichment": "0.1 ratio"}
{"Oligonucleotide": "GACCCCUUGAUGGCCCAAGAAUCCCAUAUGCUAGCUUCUAACACCAUGGAGACCCAUAUGUUAGCAUCCAAUACCAUGGACUCCCAGAUGCUAGCAUCCAACACUAUGGAUUCUCAGAUG", "bound/input enrichment": "0.279 ratio"}
{"Oligonucleotide": "GAGCGAGAUGGUGCUGUCAAGGCUAUGGAAGAAAUGAAUGGCAAAGACUUGGAGGGAGAAAAUAUUGAAAUUGUUUUUGCCAAGCCACCAGAUCAGAAAAGGAAAGAAAGAAAAGCUCAG", "bound/input enrichment": "0.384 ratio"}
{"Oligonucleotide": "AAUAAGCUACAUAAUUCCGAAGUUAUAUUUCCUCUACCAUUUCCGUAAUUCUUACUCCAUUUUAGAAAACUUUGUUAGGCCAAAGACAAAUAGUAGGCAAGAUGGCACAGGGCAUGAAGU", "bound/input enrichment": "2.19 ratio"}
{"Oligonucleotide": "GGUUUUGUUCCUGGCUUUCAGAAAACCAACGCCAAGAUCCCUCCCAGCGUCCACAUCGUCCUCUGGCAGGAGCUCCUGCCCCUCUGCCUCCCACCCUGCCCCCUACACCCCCUGCAGACC", "bound/input enrichment": "0.654 ratio"}
{"Oligonucleotide": "GCUCGGCAGCAGCGGCCCCGCCGGCCGGAGCGGGGGGGUGGGGCGCCGAGUGCGCGGGGAGGGGGGUCCUGGUCCUCGGCUCCUCGACUUGGUCGCGCCUCGACAGCGAACAUGUCUCGG", "bound/input enrichment": "1.32 ratio"}
{"Oligonucleotide": "AGCAAAAAUCAAAUUAAAGUAGAUCUUGUAGAUGAGAAUUUUACAGAAUUAAGAGGAGAAAUAGCAGGACCUCCAGACACACCAUAUGAAGGAGGAAGAUACCAACUAGAGAUAAAAAUA", "bound/input enrichment": "18.5 ratio"}
{"Oligonucleotide": "ACACAAAUGUACCCUUACUCCAGUCUGUCCCUCACCUCCAUUGUCUAAGGUAUUGGACUUAGAUGCUUAUGUGUAAUAUGUUGAACCUGUCAGUUGCUGUCUUUUUCCUUCUUCGCAUUU", "bound/input enrichment": "0.237 ratio"}
{"Oligonucleotide": "AGGAUUCAGAAGGAGGACUUUUGGCACUCUUAUAUCGACUAUGAGAUCUGCAUUCACACAAAUAGCAUGUGUUUUACAAUGAAAACAUCUUGUGUACGAAGAAGGUAUAGAGAGUUCGUG", "bound/input enrichment": "0.303 ratio"}
{"note": "Some of these lines once more (sample 2):"}
{"Oligonucleotide": "UAACUUUAGAGGAGGAUCUGAUGCAUAUGGCAGUGGACGUGGAUUUGGGGAUGGCUAUAAUGGGUAUGGAGGAGGACCUGGAGGUGGCAA", "log2 enrichment": 0.448}
{"Oligonucleotide": "UGGGAGGUGGAUUUUGUUUAUUUUUUUAGCUCAUUUCCAGGGGUGGGAAUUUUUUUAUAAUAUGUGUCAUGAAUAAAGUUGUUUUUGAAA", "log2 enrichment": -0.31}
{"Oligonucleotide": "GCAGGAAGUACAAACAAAUGGAAAUGCUUCGGAUAGUGGCAGGGGUGGGGGUUGCUAAGGAAAGGGUGGGAUGGGAGUGGGUAAAGAGUU", "log2 enrichment": 0.428}
